Results from different studies.
Each numbered part is a random draw from the data of one study; scales do not carry over between parts.

Sample 1 — technique: protein binding microarray; molecule type: double-stranded DNA, one strand shown; matrix: in vitro; tested at: not given; reference: not given; direction: higher = stronger binding
Target: Histone acetyltransferase KAT6A, both winged helices, GST fusion (KAT6A, Homo sapiens, UniProt Q92794, residues 1-181)
Setting: 8-mer, flanks averaged, mean of 2 arrays, mostly near background
Construct (chain): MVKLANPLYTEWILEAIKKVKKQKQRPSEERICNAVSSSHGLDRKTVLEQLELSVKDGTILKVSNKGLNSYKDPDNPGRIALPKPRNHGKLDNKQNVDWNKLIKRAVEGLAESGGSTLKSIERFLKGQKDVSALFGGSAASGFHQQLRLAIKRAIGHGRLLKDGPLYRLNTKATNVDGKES
`CGCACTCA` has an E-score of 0.136.
`GGAGGCCC` has an E-score of 0.00173.
`ACTAGGAG` has an E-score of -0.172.
With `ATGTGAAT` the E-score was -0.0166.
`AAGGTATA` has an E-score of -0.0871.
The E-score of `TAAACCGA` is reported as 0.0689.
`AATTGATA` gave an E-score of -0.111.
The E-score of `ATGGATAC` is reported as -0.155.
`GGCCGTAA` gave an E-score of 0.268.
With `AAACCAAC` the E-score was -0.0396.
`GACAGAGC` has an E-score of -0.0788.
For `CCACTCGC`, the E-score was 0.0179.
`CCAGCGCC` has an E-score of 0.222.
With `AGTTAGGC` the E-score was -0.116.
With `CAGCTGCG` the E-score was 0.178.
For `ATATGACA`, the E-score was -0.152.
The E-score of `CATGTACG` is reported as 0.0106.
The E-score of `CGGAAGCC` is reported as 0.22.
For `ATGTCAAG`, the E-score was -0.0564.
`CGGAAACA` has an E-score of 0.3.
The E-score of `CAACTACA` is reported as -0.143.
The E-score of `GAGTGATC` is reported as -0.0937.
For `AATCCCAG`, the E-score was -0.161.
`CTTCTTTC` has an E-score of -0.247.

Sample 2 — technique: RNA Bind-n-Seq; molecule type: RNA; matrix: in vitro; tested at: not given; reference: input RNA pool; direction: higher = stronger binding
Target: RING finger protein unkempt homolog, zinc fingers 1-6, GST-SBP tag (UNK, Homo sapiens, UniProt Q9C0B0, residues 30-357)
UniProt Q9C0B0, sequence (30-357, looked up): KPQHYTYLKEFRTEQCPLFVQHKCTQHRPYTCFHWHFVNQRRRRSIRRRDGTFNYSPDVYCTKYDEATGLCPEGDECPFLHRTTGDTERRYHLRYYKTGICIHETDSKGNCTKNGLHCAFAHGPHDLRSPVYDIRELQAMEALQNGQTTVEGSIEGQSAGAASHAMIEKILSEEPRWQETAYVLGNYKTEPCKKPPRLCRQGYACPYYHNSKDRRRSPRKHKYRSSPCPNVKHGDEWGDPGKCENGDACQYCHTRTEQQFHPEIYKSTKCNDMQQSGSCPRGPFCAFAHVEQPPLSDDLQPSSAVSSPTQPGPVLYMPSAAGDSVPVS
Setting: RNA with constant flanks, human and mouse sites, ends assumed
Constant ends, left off below: GGGAGUUCUACAGUCCGACGAUC … CAACAGAGGAUUGAGCAUCA
`UGGUUUGUGAAUUUUAUACAAUUGAAAGUCUUUUUUUCUUGCUUCUUUCUUCUCUUCUCAAGUUUCCCCCCUGUUUCUACUUUAUUGUUUGUCCUAACCAUUUCUACUACAGUUUUUUCC` gave a bound/input enrichment of 1.73 ratio.
`CAUGGCCAUGGUAAAAUGGAACUUCCAGAUUACAGACAGUGGAAAAUUGAAGGGACGCCAUUAGAAACGGUGCAGAAGAAGCUUGCUGCCCGAGGGCUGAGGGAUCCAUGGGCUCGCAAU` has a bound/input enrichment of 0.589 ratio.
The bound/input enrichment of `CCCGCGCCGCCUCCUCCCACCCUGAGCAGAGCCACCGAGGAUGAUAAACACCCAGGACAGUAGUAUUUUGCCGUUGAGUAAGUGUCCCCAGCUCCAGUGCUGCAGGCACAUUGUUCCAGG` is reported as 0.208 ratio.
With `UACUUGUGCCCUGGCAGCCUUAUUGCAGGCAGUGCCGUCCUGCUUUAUGCUUUUGUGGAGACCCGGGACAACUACUUCUACAUUCACAGCAUUUGGCAUAUGCUCAUUGCGGGCAGUGUG` the bound/input enrichment was 0.14 ratio.
`CAGCGUCUCUGGGUGGGCCGCUGGCUGGCAGGCCAGGCCGGGGGCCUGCUGAGGGACCGUGGGCUGAGGAAGGAUGCCCGUGCCAGUGCCCGGGAUGCGGCUGUUGUCUACCAUAAGCUG` gave a bound/input enrichment of 0.0351 ratio.
`AGCGAGCGAAAUCUUUGUACUUCUGAGUUCUUGCUGUAUGUAUGUUUUGUUUUAAAUCUGAUUAGGGACACCCAGCAGCUGGCCGGGAUUCUUGGAUUGCUCCUUGGGAGUUAAGAUUGU` gave a bound/input enrichment of 0.287 ratio.
The bound/input enrichment of `CCUCUUUUCCAGUCCCAUGUUGAAGAUCUUUACGUAGAAGGGCUUCCUGAAGGGAUUCCUUUUAGAAGGCCGUCGACGUACGGCAUUCCUCGCCUUGAGAGGAUAUUGCUGGCGAAGGAA` is reported as 0.134 ratio.
With `GGUAAGCUAAUCGCGGUGAUUGGAGACGAGGACACGGUGACUGGUUUCCUGUUGGGCGGCAUAGGGGAGCUAAACAAGAACCGCCACCCUAAUUUCCUGGUAGUGGAGAAGGAUACCACC` the bound/input enrichment was 0.243 ratio.

Sample 3 — technique: RNA Bind-n-Seq; molecule type: RNA; matrix: in vitro; tested at: 200 nM; setting: whole 134-nt RNA, ends assumed; with: 150 mM LiCl; reference: input library; direction: higher = stronger binding; all molecules: 7-deaza-guanosine replaces G
Target: Fragile X messenger ribonucleoprotein 1, C-terminal low-complexity region (Fmr1, Mus musculus, UniProt P35922)
Constant ends, left off below: GGGAGUUCUACAGUCCGACGAUC … UGGAAUUCUCGGGUGUCAAGG
`CACAGACAACACGCACCCACACAGACACAGAGGGAAGGGGUUGGGAUCGGGACAGGGUGCACAGCAGGGCGGGGUAGGACCCCAGCCCCU` has a log2 enrichment of 0.0598.
The log2 enrichment of `UCCUGUGCUACACAUCGUAUGUACCGAAUCGGGGUUUUUUGGUUUUUUGGGGUUUUUUGGAAAGUAUUAUGUUACGCCGUUCGGAUCUGC` is reported as -0.409.
With `CUGUGCUACACAUCGUAUGUACCGAAUCGGAAAAAAAGGGAAAAAAAGGGAAAAAAAGGGGAAAGUAUUAUGUUACGCCGUUCGGAUCUG` the log2 enrichment was -0.331.
`UGGCCCUGGUGGCAUGCGGGGAGGAAGAGGUAGCCUCAUGGAUCGUGGUGGUCCCGGUGGAAUGUUCAGAGGUGGCCGUGGUGGAGACAG` has a log2 enrichment of -0.119.
The log2 enrichment of `GUCCUGUGCUACACAUCGUAUGUACCGAAUCGGGAAAAAGGGGAAAAAGGAAAAAGGGGAAAGUAUUAUGUUACGCCGUUCGGAUCUGCA` is reported as 0.707.
For `CAAGUCCUGUGCUACACAUCGUAUGUACCGAAUCGGAAAAGGAAAAGGGAAAAGGGAAAGUAUUAUGUUACGCCGUUCGGAUCUGCACUU`, the log2 enrichment was -1.06.
For `UAGGUAUUUCUGGGAAAAGCCAGCUUCUGUUUGCACUGGUCUUCACAACUCGUUACCUGGAUCUUUUUACUUCAUUUAUUUCAUUGUAUA`, the log2 enrichment was -2.48.
With `CUGUGCUACACAUCGUAUGUACCGAAUCAAACCCCCCCAAAUUUUUUUAAACCCCCCCAAAAAAGUAUUAUGUUACGCCGUUCGGAUCUG` the log2 enrichment was 1.29.

Sample 4 — technique: protein-binding microarray; molecule type: double-stranded DNA, one strand shown; matrix: in vitro; tested at: 250 nM; setting: 60-bp whole probe; with: salmon DNA 0.4 mg/ml; reference: random background probes; direction: higher = stronger binding; constant ends, left off below: GCCTAGCAC … GTCTTGATTCGCTTGACGCTGCTG
Target: Interferon regulatory factor 7, full length, phosphomimetic (IRF7, Homo sapiens, UniProt Q92985, residues 1-503, S101K/S471D/S472D/S475D/S476D/S477D/S483D/S484D/S487D)
Construct (chain): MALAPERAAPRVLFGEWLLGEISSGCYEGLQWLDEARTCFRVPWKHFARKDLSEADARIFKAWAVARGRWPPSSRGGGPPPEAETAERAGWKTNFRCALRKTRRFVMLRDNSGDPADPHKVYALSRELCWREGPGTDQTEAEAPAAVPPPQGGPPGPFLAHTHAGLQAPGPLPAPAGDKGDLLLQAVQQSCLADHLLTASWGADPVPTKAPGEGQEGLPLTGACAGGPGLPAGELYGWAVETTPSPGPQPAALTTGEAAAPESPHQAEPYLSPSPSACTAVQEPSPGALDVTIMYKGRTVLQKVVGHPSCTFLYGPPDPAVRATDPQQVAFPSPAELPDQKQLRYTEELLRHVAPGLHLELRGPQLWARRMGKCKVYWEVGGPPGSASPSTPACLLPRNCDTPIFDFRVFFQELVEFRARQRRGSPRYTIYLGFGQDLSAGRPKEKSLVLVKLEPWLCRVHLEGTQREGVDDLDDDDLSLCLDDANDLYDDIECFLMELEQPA
With `GACGAACTTAGTTTCGAGACGTGCTAG` the log fluorescence was 5.78 z-score.
For `TTAGGATTCCTTATCCTTTAGTGCTAG`, the log fluorescence was 0.666 z-score.
`TACGATTTCGGGTATCGAGACGTGCTA` gave a log fluorescence of 0.825 z-score.
`TTAGGTTTCGGACTTGGTTAGTGCTAG` gave a log fluorescence of 3.94 z-score.
With `GACGATTTCGGGACTGGAAACGTGCTA` the log fluorescence was 0.395 z-score.
With `CACCACATTTTTTTCATTATGTGCTAG` the log fluorescence was 0.465 z-score.
`TTAGGACTGCATATCCTTTAGTGCTAG` has a log fluorescence of -0.213 z-score.
With `CCTATTATATATATCATAAGGTGCTAG` the log fluorescence was 1.32 z-score.
The log fluorescence of `CTGCCTGGCCAAGCCCAGATGTGCTAG` is reported as -0.369 z-score.
`TTCACTATTGCTTCCTCTTTGTGCTAG` has a log fluorescence of 0.43 z-score.
With `GACGGTATCGGACTGGGCACGTGCTAG` the log fluorescence was -0.358 z-score.
The log fluorescence of `GGCGATTTCGGGTTTCGAGACGTGCTA` is reported as 3.88 z-score.
The log fluorescence of `TACGGACTGCTTATCCTGACGTGCTAG` is reported as -0.33 z-score.
`TTAGGTTTCCCACTGCTTTAGTGCTAG` has a log fluorescence of 1.42 z-score.
`GACGATCTCAGATTCGAGACGTGCTAG` gave a log fluorescence of 0.693 z-score.
`TCAAATTTCCATTTTCTACTGTGCTAG` has a log fluorescence of 1.4 z-score.

Excerpt of the above (sample 1):
`GGCCGTAA` gave an E-score of 0.268.
With `AAACCAAC` the E-score was -0.0396.
`GACAGAGC` has an E-score of -0.0788.
For `CCACTCGC`, the E-score was 0.0179.
`CCAGCGCC` has an E-score of 0.222.
